Assay results of several laboratories.
CYP2C19: Cytochrome P450 2C19 (CYP2C19, Homo sapiens, UniProt P33261)
Chain of UniProt P33261 (whole entry, looked up): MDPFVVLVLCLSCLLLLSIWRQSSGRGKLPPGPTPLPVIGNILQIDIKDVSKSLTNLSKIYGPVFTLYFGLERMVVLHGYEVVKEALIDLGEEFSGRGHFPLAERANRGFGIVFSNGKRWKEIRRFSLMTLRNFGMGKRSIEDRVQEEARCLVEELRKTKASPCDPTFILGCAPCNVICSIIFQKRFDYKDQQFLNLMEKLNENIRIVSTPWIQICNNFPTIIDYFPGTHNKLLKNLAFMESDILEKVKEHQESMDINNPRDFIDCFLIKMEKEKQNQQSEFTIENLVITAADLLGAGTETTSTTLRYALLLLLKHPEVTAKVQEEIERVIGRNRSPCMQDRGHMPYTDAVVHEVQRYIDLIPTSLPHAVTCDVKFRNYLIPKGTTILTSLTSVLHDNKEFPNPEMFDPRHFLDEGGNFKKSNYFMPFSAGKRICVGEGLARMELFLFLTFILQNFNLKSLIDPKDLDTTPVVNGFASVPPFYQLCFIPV
ALB: Albumin (ALB, Homo sapiens, UniProt P02768)
Chain of UniProt P08684 (whole entry, looked up): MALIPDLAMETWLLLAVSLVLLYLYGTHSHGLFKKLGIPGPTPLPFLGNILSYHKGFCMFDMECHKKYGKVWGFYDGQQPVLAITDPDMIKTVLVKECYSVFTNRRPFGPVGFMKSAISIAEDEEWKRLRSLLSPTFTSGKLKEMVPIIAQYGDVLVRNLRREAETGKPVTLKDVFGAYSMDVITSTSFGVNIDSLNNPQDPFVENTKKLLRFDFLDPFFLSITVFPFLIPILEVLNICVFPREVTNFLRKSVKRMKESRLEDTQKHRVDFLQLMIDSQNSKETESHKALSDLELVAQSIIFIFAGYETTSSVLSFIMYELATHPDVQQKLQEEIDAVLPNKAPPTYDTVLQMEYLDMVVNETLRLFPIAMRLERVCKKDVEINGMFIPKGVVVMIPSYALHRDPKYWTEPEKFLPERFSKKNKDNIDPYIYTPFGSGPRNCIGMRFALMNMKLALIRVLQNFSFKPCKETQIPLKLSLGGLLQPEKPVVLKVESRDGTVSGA
Chain of UniProt O15245 (whole entry, looked up): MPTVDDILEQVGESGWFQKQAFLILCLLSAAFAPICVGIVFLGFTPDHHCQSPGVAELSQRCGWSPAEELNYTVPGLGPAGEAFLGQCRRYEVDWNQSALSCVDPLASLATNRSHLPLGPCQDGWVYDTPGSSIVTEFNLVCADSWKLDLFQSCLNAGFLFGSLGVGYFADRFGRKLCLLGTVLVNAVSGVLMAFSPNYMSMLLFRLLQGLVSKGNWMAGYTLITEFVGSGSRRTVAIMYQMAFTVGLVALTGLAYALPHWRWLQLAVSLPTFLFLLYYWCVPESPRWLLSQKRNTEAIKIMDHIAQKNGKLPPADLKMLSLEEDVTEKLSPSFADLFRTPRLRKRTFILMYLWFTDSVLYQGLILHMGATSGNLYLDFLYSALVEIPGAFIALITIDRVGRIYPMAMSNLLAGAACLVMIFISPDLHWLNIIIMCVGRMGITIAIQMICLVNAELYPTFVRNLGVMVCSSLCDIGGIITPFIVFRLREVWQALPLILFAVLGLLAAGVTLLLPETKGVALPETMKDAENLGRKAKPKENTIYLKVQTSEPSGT

Structure (SMILES)	target	test	system	setting	scale	measurement	value
CCc1cc(/C(C)=N/OCc2ccc(C3CCCCC3)c(C(F)(F)F)c2)ccc1CN1CC(C(=O)O)C1	SLC22A1 (Homo sapiens, UniProt O15245)	inhibitor	HEK293 transfected with SLC22A1	up to 24.3 µM, 5 min, with: MPP+ 0.025 µM		maximal inhibition	4.9%
COc1ccc2[nH]c([S+]([O-])Cc3ncc(C)c(OC)c3C)nc2c1 (centres unmarked)	CYP2C19	measured: 5-hydroxyomeprazole	human, plasma	oral, 20 mg omeprazole, day 14, cocktail with binimetinib and encorafenib		AUC(0-t)	674 ng·h/mL
OC[C@H]1O[C@@H](Oc2cc3c(O)cc(O)cc3[o+]c2-c2ccc(O)cc2)[C@H](O)[C@@H](O)[C@@H]1O	ALB	visible absorption spectroscopy	acetonitrile–HSA system	50 µM, pH 7, with: HSA 200 µM		λmax	< 600 nm
Cc1cc(C)c(CNC(=O)c2cc(Cl)c3c(c2C)O[C@@](C)([C@H]2CC[C@H](N(C)C)CC2)O3)c(=O)[nH]1	ALB	ultracentrifugation	4% human serum albumin solution	1000 ng/mL, 160 min		unbound fraction	0.613
NCCC(O)c1cccc(OC(=O)C2CCCCC2)c1.O=CO (centres unmarked)	porcine liver esterase			99 µM, 5 min	reference: time 0 min	compound remaining	84.6%
CC[C@H]1[C@@H](O)[C@@H]2[C@H](CC[C@]3(C)[C@@H]([C@H](C)CCNC(=O)NS(=O)(=O)c4ccc(C(C)(C)C)cc4)CC[C@@H]23)[C@@]2(C)CC[C@@H](O)C[C@@H]12	Cytochrome P450 3A4 (CYP3A4, Homo sapiens, UniProt P08684)	substrate	human, plasma	10 mg, alone, study day 1		half-life mean	10.5 h
CCC(CC)C(=O)Oc1cccc(C(O)CCN)c1.O=CO (centres unmarked)	porcine liver esterase			99 µM, 30 min	reference: time 0 min	compound remaining	60.8%
COc1ccc2nc([S+]([O-])Cc3ncc(CO)c(OC)c3C)[nH]c2c1 (centres unmarked)	CYP2C19		human, plasma	oral, 20 mg omeprazole, Day 14, with: encorafenib at steady state	reference: Day -7	total AUClast decrease	37%

Excerpt of the above:
Structure (SMILES)	target	test	system	setting	scale	measurement	value
Cc1cc(C)c(CNC(=O)c2cc(Cl)c3c(c2C)O[C@@](C)([C@H]2CC[C@H](N(C)C)CC2)O3)c(=O)[nH]1	ALB	ultracentrifugation	4% human serum albumin solution	1000 ng/mL, 160 min		unbound fraction	0.613
